Results pooled from the literature.
Compare with care: the assays were run in different laboratories. ± gives the spread as reported.

| SMILES | test system | setting | tissue uptake |
| --- | --- | --- | --- |
| N=C(N)NCCC[C@@H]1NC(=O)[C@H](CC(=O)NC23CNCCNCC(N)(CNCCNC2)CNCCNC3)NC(=O)[C@@H](Cc2ccccc2)NC(=O)[C@H](CC(=O)O)NC(=O)CNC1=O [copper-64 labelled] | Nu/Nu mouse, male, tumour-bearing, liver | intravenous, 10 µCi, 1 h | 2.33 ± 0.76 %ID/g |
| N=C(N)NCCC[C@@H]1NC(=O)[C@H](CCCCNC(=O)CCOCCOCCOCCOCCNC(=O)CC[C@H](NC(=O)CCOCCOCCOCCOCCNC(=O)CC[C@H](NC(=O)CN2CCN(CC(=O)O)CCN(CC(=O)O)CCN(CC(=O)O)CC2)C(=O)NCCOCCOCCOCCOCCC(=O)N[C@@H](CCC(=O)NCCOCCOCCOCCOCCC(=O)NCCCC[C@@H]2NC(=O)[C@@H](Cc3ccccc3)NC(=O)[C@H](CC(=O)O)NC(=O)CNC(=O)[C@H](CCCNC(=N)N)NC2=O)C(=O)NCCOCCOCCOCCOCCC(=O)NCCCC[C@@H]2NC(=O)[C@@H](Cc3ccccc3)NC(=O)[C@H](CC(=O)O)NC(=O)CNC(=O)[C@H](CCCNC(=N)N)NC2=O)C(=O)NCCOCCOCCOCCOCCC(=O)NCCCC[C@@H]2NC(=O)[C@@H](Cc3ccccc3)NC(=O)[C@H](CC(=O)O)NC(=O)CNC(=O)[C@H](CCCNC(=N)N)NC2=O)NC(=O)[C@@H](Cc2ccccc2)NC(=O)[C@H](CC(=O)O)NC(=O)CNC1=O [indium-111 labelled] | female athymic nude mice, bone | intravenous, 3 µCi, 1 h, U-87 MG glioma xenograft | 1.2 ± 0.19 %ID/g |
| CCCC[C@H](NC(=O)COCCOCCNC(=O)c1ccc(NN)nc1)C(=O)N[C@H]1CC(=O)NCCCC[C@@H](C(N)=O)NC(=O)[C@H](Cc2c[nH]c3ccccc23)NC(=O)[C@H](CCCNC(=N)N)NC(=O)[C@@H](Cc2ccccc2)NC(=O)[C@H](Cc2c[nH]cn2)NC1=O [technetium-99m labelled] | C57 mouse, female, B16/F1 melanoma, pancreas | intravenous, 0.037 MBq, 2 h | 0.08 ± 0.06 %ID/g |
| N=C(N)NCCC[C@@H]1NC(=O)[C@H](CCCCNC(=O)CC[C@H](NC(=O)CCOCCOCCOCCOCCNC(=O)CN2CCN(CC(=O)O)CCN(CC(=O)O)CCN(CC(=O)O)CC2)C(=O)NCCCC[C@@H]2NC(=O)[C@@H](Cc3ccccc3)NC(=O)[C@H](CC(=O)O)NC(=O)CNC(=O)[C@H](CCCNC(=N)N)NC2=O)NC(=O)[C@@H](Cc2ccccc2)NC(=O)[C@H](CC(=O)O)NC(=O)CNC1=O [indium-111 labelled] | female athymic nude mice, kidney | intravenous, 3 µCi, 4 h, U-87 MG glioma xenograft | 3.44 ± 0.43 %ID/g |
| CCCC[C@H](NC(=O)CCCCCCCNC(=O)c1ccc(NN)nc1)C(=O)N[C@H]1CC(=O)NCCCC[C@@H](C(N)=O)NC(=O)[C@H](Cc2c[nH]c3ccccc23)NC(=O)[C@H](CCCNC(=N)N)NC(=O)[C@@H](Cc2ccccc2)NC(=O)[C@H](Cc2c[nH]cn2)NC1=O [technetium-99m labelled] | C57 mouse, B16/F1 melanoma, urine | intravenous, 0.037 MBq, 0.5 h | 60.2 ± 4.46 %ID |
| CCCC[C@H](NC(=O)CNC(=O)CNC(=O)c1ccc(NN)nc1)C(=O)N[C@H]1CC(=O)NCCCC[C@@H](C(N)=O)NC(=O)[C@H](Cc2c[nH]c3ccccc23)NC(=O)[C@H](CCCNC(=N)N)NC(=O)[C@@H](Cc2ccccc2)NC(=O)[C@H](Cc2c[nH]cn2)NC1=O [technetium-99m labelled] | C57 mouse, B16/F1 melanoma-bearing, lung | intravenous, 4 h | 0.24 ± 0.04 %ID/g |
| CSCC[C@H](NC(=O)[C@H](CC(C)C)NC(=O)[C@H](Cc1c[nH]cn1)NC(=O)CNC(=O)[C@@H](NC(=O)[C@H](C)NC(=O)[C@H](Cc1c[nH]c2ccccc12)NC(=O)[C@H](CCC(N)=O)NC(=O)CCCCNC(=O)CSCCSCCP(CO)CO)C(C)C)C(N)=O [technetium-99m labelled] | female CF-1 mouse, whole blood | intravenous, 1 h | 0.67 %ID/g |
| N=C(N)NCCC[C@@H]1NC(=O)[C@H](CCCCNC(=O)CC[C@H](NC(=O)CCOCCOCCOCCOCCNC(=O)CC[C@H](NC(=O)CN2CCN(CC(=O)O)CCN(CC(=O)O)CCN(CC(=O)O)CC2)C(=O)NCCOCCOCCOCCOCCC(=O)N[C@@H](CCC(=O)NCCCC[C@@H]2NC(=O)[C@@H](Cc3ccccc3)NC(=O)[C@H](CC(=O)O)NC(=O)CNC(=O)[C@H](CCCNC(=N)N)NC2=O)C(=O)NCCCC[C@@H]2NC(=O)[C@@H](Cc3ccccc3)NC(=O)[C@H](CC(=O)O)NC(=O)CNC(=O)[C@H](CCCNC(=N)N)NC2=O)C(=O)NCCCC[C@@H]2NC(=O)[C@@H](Cc3ccccc3)NC(=O)[C@H](CC(=O)O)NC(=O)CNC(=O)[C@H](CCCNC(=N)N)NC2=O)NC(=O)[C@@H](Cc2ccccc2)NC(=O)[C@H](CC(=O)O)NC(=O)CNC1=O [indium-111 labelled] | female athymic nude mice, blood | intravenous, 3 µCi, 1 h, U-87 MG glioma xenograft | 0.31 ± 0.16 %ID/g |
| CC(C)C[C@H](NC(=O)[C@H](Cc1ccc(O)cc1)NC(=O)[C@@H](CCCNC(=N)N)NC(=O)[C@@H](CO)NC(=O)[C@H](Cc1ccccc1)NC(=O)[C@H](CC1CCCCC1)NC(=O)[C@H](CC(=O)O)NC(=O)CCC(C(=O)O)N1CCCN2CCN(CCCN(CC(=O)O)CC2)CC1)C(=O)N[C@@H](Cc1c[nH]c2ccccc12)C(=O)N[C@@H](CO)C(=O)O (some centres unmarked) [copper-64 labelled] | female NMRI nude mice, blood | 22 h p.i. | 0.2 ± 0.1 %ID/g |
| CSCC[C@H](NC(=O)[C@H](CC(C)C)NC(=O)[C@H](Cc1c[nH]cn1)NC(=O)CNC(=O)[C@@H](NC(=O)[C@H](C)NC(=O)[C@H](Cc1c[nH]c2ccccc12)NC(=O)[C@H](CCC(N)=O)NC(=O)CCCCCNC(=O)CNC(=O)CNC(=O)CNC(=O)CSC(C)=O)C(C)C)C(N)=O [technetium-99m labelled] | nude mouse, PC-3 xenograft, blood | 90 min | 0.2 ± 0.06 %ID/g |
| N=C(N)NCCC[C@@H]1NC(=O)[C@H](CCCCNC(=O)CNC(=O)CNC(=O)CNC(=O)CC[C@H](NC(=O)c2ccc(NN=Cc3ccccc3S(=O)(=O)O)nc2)C(=O)NCC(=O)NCC(=O)NCC(=O)NCCCC[C@@H]2NC(=O)[C@@H](Cc3ccccc3)NC(=O)[C@H](CC(=O)O)NC(=O)CNC(=O)[C@H](CCCNC(=N)N)NC2=O)NC(=O)[C@@H](Cc2ccccc2)NC(=O)[C@H](CC(=O)O)NC(=O)CNC1=O [technetium-99m labelled] | athymic nu/nu mouse, female, MDA-MB-435 xenograft, blood | intravenous, 30 min | 1.13 ± 0.21 %ID/g |

Excerpt of the above:
| SMILES | test system | setting | tissue uptake |
| --- | --- | --- | --- |
| CSCC[C@H](NC(=O)[C@H](CC(C)C)NC(=O)[C@H](Cc1c[nH]cn1)NC(=O)CNC(=O)[C@@H](NC(=O)[C@H](C)NC(=O)[C@H](Cc1c[nH]c2ccccc12)NC(=O)[C@H](CCC(N)=O)NC(=O)CCCCNC(=O)CSCCSCCP(CO)CO)C(C)C)C(N)=O [technetium-99m labelled] | female CF-1 mouse, whole blood | intravenous, 1 h | 0.67 %ID/g |
